Measurements of several laboratories.
Each line is one published result; not all experiments were run side by side. ± gives the spread as reported.

With CCC(=C(c1ccc(Cl)cc1)c1ccc(OCCCN(C)C)cc1)c1ccc(OC)cc1 the GI50 was 1.13 µM (BT-549; cell growth or viability, SRB).
CC[C@@]12CCc3c(c4ccccc4n3C)CCN(C[C@H](O)[C@H]1O)C2 has an inhibition of 54.1 ± 4.3% (BV-2; NO production; 6 µM, 1 h, 24 h stimulation, added: LPS 800 ng/mL; baseline: LPS control).
CCNS(=O)(=O)c1ccc(COc2ccc3nc4ccc(=O)cc-4oc3c2)cc1 — result for cell proliferation: “no effect” (BT-549; 1 µM).
For N#Cc1cnc2cc(OCC3CCNCC3)c(F)cc2c1Nc1cc(F)c(OCc2cccc(Cl)n2)cc1Cl, “MST1 and caspase activation” read “decreased” (INS-1E; western blot; concentration not given, pretreatment, added: thapsigargin).
With COC1CN([C@H]2CC[C@H]([C@@]3(C)Oc4c(Cl)cc(C(=O)NCc5c(SC)cc(C)[nH]c5=O)c(C)c4O3)CC2)C1 the GI50 was 0.01 µM (HT-1376; cell growth or viability, ATP luminescence; 12 days).
Under “small Htt103Q aggregates per cell”, CC[C@H](C)[C@H](NC(=O)[C@H](Cc1c[nH]cn1)NC(=O)[C@H](Cc1ccccc1)NC(=O)[C@@H](NC(=O)[C@H](C)NC(=O)[C@H](CC(N)=O)NC(=O)[C@H](Cc1c[nH]c2ccccc12)NC(=O)[C@@H](NC(=O)CNC(=O)CNC(=O)[C@H](CCCNC(=N)N)NC(=O)[C@H](CCCNC(=N)N)NC(=O)[C@H](CCCNC(=N)N)NC(=O)[C@H](CCC(N)=O)NC(=O)[C@H](CCCNC(=N)N)NC(=O)[C@H](CCCNC(=N)N)NC(=O)[C@H](CCCCN)NC(=O)[C@H](CCCCN)NC(=O)[C@H](CCCNC(=N)N)NC(=O)CNC(=O)[C@@H](N)Cc1ccc(O)cc1)C(C)C)[C@@H](C)O)C(=O)N[C@@H](Cc1c[nH]c2ccccc12)C(=O)N[C@@H](Cc1c[nH]cn1)C(=O)N[C@@H](CC(=O)O)C(N)=O is recorded as “decreased” (HeLa expressing CFP-Htt103Q; 10 µM).
O=C(CCCCC1SCC2NC(=O)NC21)NCCCCC(CN1CCCC1CN1C(=O)C(=O)NCC1Cc1ccccc1)N1CC(Cc2ccc(O)cc2)N(CCc2ccccc2)C(=O)C1=O (stereo not drawn) — result for “maximal viability inhibition”: 37% (WM 266-4; CellTiter-Glo; 100 µM, 72 h).
With CC/C=C\C/C=C\C/C=C\C/C=C\C/C=C\C/C=C\CCC(=O)Nc1ccn(C2OC(CO)C(O)C2(F)F)c(=O)n1 (stereo not drawn) the TGI was 22.5 µM (IGROV-1; NCI60 screen).
O=Cc1c(O)ccc2ccccc12: “log2 fold change” 4.67 (HUVEC; RNA sequencing, refers to: ERFE; 75 µM, 24 h; baseline: DMSO).
Cc1ccc(CN2C(=O)/C(=N\c3ccc(Cl)cc3Br)c3ccccc32)cc1 gave an apoptotic cells of 44.2% (B16 co-cultured with treated M2 macrophages; concentration not given).
COc1cc(CNC(=O)C[C@H](C)CCC=C(C)C)ccc1OCc1cn(-c2cccc(C(F)(F)F)c2)nn1 gave a growth of 97.1% (CCRF-CEM; SRB; 10 µM, 48 h).
C=C(CC)C(=O)c1ccc(OCC(=O)NCCNC(=O)COc2ccc(C(=O)C(=C)CC)c(Cl)c2Cl)c(Cl)c1Cl — result for “sensitisation to cisplatin”: ~7 fold (A549/DDP cisplatin-resistant; cell growth, CCK-8; 1.0 µM, added: cisplatin).
CC(=NNC(=S)NN=C(C(=NO)c1ccccc1)c1ccccc1)c1ccccc1: “relative protein level” 1.74 ± 0.05 (MCF7; Western blot, refers to: Bax; IC50 concentration, 24 h; baseline: untreated).
COc1cc(CNC(=O)C[C@H](C)CCC=C(C)C)ccc1OCc1cn(-c2ccc(C#N)cc2)nn1 has a growth percent of 58.3% (RPMI-8226 leukaemia cells; SRB; 10 µM, 48 h).
For COC(=O)c1ccccc1-c1c2ccc(=O)cc-2oc2cc(OCCCCC[P+](c3cc(C)cc(C)c3)(c3cc(C)cc(C)c3)c3cc(C)cc(C)c3)ccc12, the fluorescence ratio was 0.757 (HeLa cells; confocal microscopy; mitochondria; 100 nM; baseline: MitoTracker Deep Red).
The inhibition of COc1ccc(C2=Nn3c(NN=C4C(=O)N(Cc5ccccc5)c5ccc(Cl)cc54)nnc3SC2)cc1 is reported as 33% (IGROV-1; cell growth or viability, SRB; 10 µM).
For COc1ccc(-c2nnc(-c3cc(-c4ccccc4)n(-c4ccc(S(N)(=O)=O)cc4)n3)o2)cc1, the mRNA level was 0.28 fold (MCF7; real-time PCR, refers to: bcl-2; concentration not given; baseline: untreated cells).
For N.N.[Cl][Pt+].c1ccc2c(c1)cnc1ccccc12, the selectivity index was 13.8 (HEL 299 and A549; resazurin; baseline: IC50 HEL 299 over A549).
The TGI of O=C1Nc2ccc(F)cc2C1=Cc1c(Cl)[nH]c2c1ccc1ccccc12 is reported as 6.76 µM (breast cancer subpanel of NCI-60; 48 h).
COc1ccc(OC)c(Nc2nc(NCCCO)c3ccccc3n2)c1 has a foci-positive cells of 19 ± 0.4% (BCR-ABL1+ BRCA1-deficient 32Dcl3; refers to: GFP-RAD52 foci; 2.5 µM, added: cisplatin).
CC(=O)OC[C@H]1O[C@@H](Sc2sc(C(=O)c3ccc(Br)cc3)c(N)c2-c2nc3ccccc3s2)[C@H](OC(C)=O)[C@@H](OC(C)=O)[C@H]1OC(C)=O gave a growth of 95.2% (SF-539; SRB; 10 µM, 48 h; baseline: untreated).
For O=C1NCC(Cc2ccccc2)N(CC2CCCN2CC(CC2CCCCC2)N2CC(Cc3ccc(O)cc3)N(CCc3ccccc3)C(=O)C2=O)C1=O (stereo not drawn), the autophagic cells was 57% (WM 266-4; CYTO-ID staining; 100 µM, 24 h).
For CC(=O)OC[C@H]1O[C@@H](Sc2sc(C(=O)c3ccc(C)cc3)c(N)c2-c2nc3ccccc3s2)[C@H](OC(C)=O)[C@@H](OC(C)=O)[C@@H]1OC(C)=O, the growth was 93.6% (SK-MEL-2; SRB; 10 µM, 48 h; baseline: untreated).
C/C(=N\N=C1/NC(=O)CS1)c1ccccn1 gave an inhibition of 71.5% (Vero; cell growth or viability, SRB; 100 µg/mL, 48 h).
With COc1cc(CNC(=O)C[C@H](C)CCC=C(C)C)ccc1OCc1cn(-c2ccccc2[N+](=O)[O-])nn1 the growth percent was 67% (SF-539 CNS cancer cells; SRB; 10 µM, 48 h).
For COc1cc(O)c(-c2c(O)cc(OC)c3c2ccc2cc(O)ccc23)c2ccc3ccccc3c12, cytokine release read “decreased” (BV-2; ELISA, refers to: IL-6; concentration not given, pretreatment, added: LPS).
The growth percent of COc1cc(CNC(=O)C[C@H](C)CCC=C(C)C)ccc1OCc1cn(-c2ccc(Cl)c(Cl)c2)nn1 is reported as 93.7% (SK-MEL-2 melanoma cells; SRB; 10 µM, 48 h).
O=C1C(=NN=c2[nH]ccs2)c2cc(Cl)ccc2N1CCn1ncc2c(=O)[nH]cnc21 has a selectivity ratio of 1.25 (BALB/3T3 and MDA-MB-231; cell growth; baseline: IC50 BALB/3T3 over MDA-MB-231).
COC(=O)c1ccccc1-c1c2ccc(=O)cc-2oc2cc(OCCCCC[P+](c3ccccc3)(c3ccccc3)c3ccccc3)ccc12 has a Pearson coefficient of 0.568 (HeLa cells; confocal microscopy; added: MitoTracker Deep Red).
CN1CCN(C(=O)N(CCCCCCC(=O)NO)c2ccc(-c3ccc4cnn(C)c4c3)cc2)CC1 has a sub-G1 cells of 26.6 ± 1.8% (MM1.S; flow cytometry, propidium iodide; 1000 nM, 24 h).
For COc1cc(CNC(=O)C[C@H](C)CCC=C(C)C)ccc1OCc1cn(-c2cccc([N+](=O)[O-])c2)nn1, the growth percent was 40.1% (U-251 CNS cancer cells; SRB; 10 µM, 48 h).
The cell count of COc1ccc([C@@H]2CC(=O)c3c(O)cc(O[C@@H]4O[C@H](CO[C@@H]5O[C@@H](C)[C@H](O)[C@@H](O)[C@H]5O)[C@@H](O)[C@H](O)[C@H]4O)cc3O2)cc1O is reported as 10800 ± 473 (MRC5; trypan blue exclusion; 100 µg/mL, 24 h).
For N#Cc1cccc(-c2ccc(=O)n(Cc3cccc(-c4ncc(OCC5CCN(CC(=O)N6CCN(c7ccc8c(c7)C(=O)N(C7CCC(=O)NC7=O)C8=O)CC6)CC5)cn4)c3)n2)c1 (stereo not drawn), the c-MET degradation was > 80% (EBC-1; degrader, label-free proteomics; 10 nM, 48 h).
Cc1nn(-c2ccc(S(=O)(=O)N[C@H](CO)CC(C)C)cc2)c2nn3nnnc3nc12 gave a necrotic cells of 21 ± 1.41% (HT-29; AO/EB staining; 0.5 µM, 24 h).
With C[N+]1(CC(=O)OC2CCCCCCCCCCC2)CCCCC1 the ED20 was 3.5 µM (LNCaP expressing AR-V7; cell viability, CellTiter Blue; 96 h).
CC(C)Cc1ccc(C(C)C(=O)[O][Pt]([NH2])([NH2])([Cl])([Cl])[O]C(=O)C(Cl)Cl)cc1 (stereo not drawn) has a resistance factor of 3 (C13 and 2008; cytotoxicity, MTT; baseline: IC50 C13 over IC50 2008).
The BCL2 level of COc1ccc(NC(=O)CCc2nc3cc(Cl)ccc3[nH]c2=O)cc1 is reported as 0.448 fold (unspecified cells; concentration not given; baseline: untreated control).
Under efferocytosis, Cc1cc(C)c2sc(NC(=O)C3CCN(S(=O)(=O)c4ccc(F)cc4)CC3)nc2c1 is recorded as “increased” (wild-type mouse BMDM; flow cytometry; 10 µM, 6 h pretreatment, added: apoptotic Jurkat cells 45 min; baseline: vehicle).
The growth percent of COc1cc(CNC(=O)C[C@H](C)CCC=C(C)C)ccc1OCc1cn(-c2ccccc2Cl)nn1 is reported as 75.2% (SF-539 CNS cancer cells; SRB; 10 µM, 48 h).
With CC(=O)N[C@H](C(=O)N[C@H](C(=O)N[C@@H](CCCNC(=N)N)C(=O)N1Cc2ccccc2C[C@H]1C(=O)N[C@@H](Cc1ccccc1)C(N)=O)C1CCCCC1)C(C)C the cytokine level was < 2.8 pg/mL (MBP-specific BC-3 T cells; Bio-Plex multiplex, refers to: GM-CSF; 200 µg/mL, 24 h, added: MBP87-99 antigen).
For COc1cc(C(=O)c2[nH]c(N)nc2-c2cccs2)cc(OC)c1OC, “polymeric to soluble tubulin ratio” read 1.1 ± 0.1 (HeLa cells; western blot; 240 nM, 24 h; baseline: polymeric over soluble tubulin).
COc1ccc2cc3[n+](cc2c1OCc1cn(Cc2ccc(C(C)(C)C)cc2)nn1)CCc1cc2c(cc1-3)OCO2.[Cl-] has an inhibition of > 50% (SMMC-7721; cell growth, MTT; 7.8 µM).
For COc1cc(CNC(=O)C[C@H](C)CCC=C(C)C)ccc1OCc1cn(-c2cccc(Cl)c2)nn1, the growth percent was 73.1% (SF-539 CNS cancer cells; SRB; 10 µM, 48 h).
Under “fold loss of activity”, Cn1nnc2c(C#N)ncn2c1=O is recorded as 10 fold (U-87 MG lacking MGMT; cell viability, Alamar Blue; concentration not given, 7 days; baseline: temozolomide).
COc1cc(CNC(=O)C[C@H](C)CCC=C(C)C)ccc1OCc1cn(-c2ccccc2)nn1 has a growth percent of 96% (SF-539 CNS cancer cells; SRB; 10 µM, 48 h).
For CC(Cc1ccc(Cl)cc1)=C(c1ccc(Cl)cc1)c1ccc(OCCN(C)C)cc1, the GI50 was 3.73 µM (IGROV-1; cell growth or viability).
With CC(C)CC(CC(C)C)NC(=O)[C@H](Cc1c[nH]cn1)NC(=O)CNC(=O)[C@@H](NC(=O)[C@H](C)NC(=O)[C@H](Cc1c[nH]c2ccccc12)NC(=O)[C@H](CCC(N)=O)NC(=O)[C@@H](Cc1ccccc1)NC(=O)COCC(=O)Nc1ccc(CNC(=O)CN2CCN(CC(=O)O)CCN(CC(=O)O)CCN(CC(=O)O)CC2)cc1)C(C)C [lutetium-177 labelled] the cell density was 98.9 ± 9.01% (PC-3, DMSO vehicle pretreated; SRB assay after 6 days; 50 MBq, 1 h, 37 °C; baseline: medium-treated).
N=C(N)NCCC[C@H](NC(=O)[C@H](Cc1c[nH]c2ccccc12)NC(=O)[C@H](CCC(N)=O)NC(=O)[C@H](Cc1c[nH]c2ccccc12)NC(=O)[C@H](CCCNC(=N)N)NC(=O)[C@H](Cc1c[nH]c2ccccc12)NC(=O)[C@H](CCC(N)=O)NC(=O)[C@H](Cc1c[nH]c2ccccc12)NC(=O)[C@@H](N)CCCNC(=N)N)C(N)=O has a selectivity ratio of > 1.7 (MCF7; baseline: MCF-12 IC50 over MCF7 IC50).

Excerpt of the above:
With COc1cc(CNC(=O)C[C@H](C)CCC=C(C)C)ccc1OCc1cn(-c2ccccc2[N+](=O)[O-])nn1 the growth percent was 67% (SF-539 CNS cancer cells; SRB; 10 µM, 48 h).
The inhibition of COc1ccc(C2=Nn3c(NN=C4C(=O)N(Cc5ccccc5)c5ccc(Cl)cc54)nnc3SC2)cc1 is reported as 33% (IGROV-1; cell growth or viability, SRB; 10 µM).
COC(=O)c1ccccc1-c1c2ccc(=O)cc-2oc2cc(OCCCCC[P+](c3ccccc3)(c3ccccc3)c3ccccc3)ccc12 has a Pearson coefficient of 0.568 (HeLa cells; confocal microscopy; added: MitoTracker Deep Red).
O=C(CCCCC1SCC2NC(=O)NC21)NCCCCC(CN1CCCC1CN1C(=O)C(=O)NCC1Cc1ccccc1)N1CC(Cc2ccc(O)cc2)N(CCc2ccccc2)C(=O)C1=O (stereo not drawn) — result for “maximal viability inhibition”: 37% (WM 266-4; CellTiter-Glo; 100 µM, 72 h).
For N#Cc1cnc2cc(OCC3CCNCC3)c(F)cc2c1Nc1cc(F)c(OCc2cccc(Cl)n2)cc1Cl, “MST1 and caspase activation” read “decreased” (INS-1E; western blot; concentration not given, pretreatment, added: thapsigargin).
The BCL2 level of COc1ccc(NC(=O)CCc2nc3cc(Cl)ccc3[nH]c2=O)cc1 is reported as 0.448 fold (unspecified cells; concentration not given; baseline: untreated control).
